Results gathered from unrelated publications.
Values joined by “and” are separate records of one study, mostly repeats; a detail may differ. ± marks the error that the study gave.

`CC[C@@H](C)[C@H]1O[C@@H](c2c(O)c(-c3ccccc3)cn(OC)c2=O)[C@H](C)C[C@@H]1C` has an IC50 of over 10 µg/mL (SK-OV-3; cytotoxicity, neutral red; 48 h).
For `CC(C)(c1ccc(O)cc1)c1ccc(O)cc1`, the necrotic cells was 14.5 ± 6.93% (HepG2 spheroids; annexin V-FITC/PI flow cytometry; 10 µM, 24 h).
For `CCCCc1nc(N)[nH]c(=O)c1Br`, “minimum cytotoxic concentration” read 100 µM (HeLa; cell morphology alteration).
For `Cn1c(C(=O)Nc2ccc(Cl)cc2)cc2c(=O)n3ccccc3nc21`, the viability was 52.4% (Vero; MTT; 100 µM, 24 (unit not given)).
`Cc1cc(C(C)(C)c2ccc(O)c(C)c2)ccc1O`: “late apoptotic cells” 29.3 ± 7.85% (HepG2 spheroids; annexin V-FITC/PI flow cytometry; 0.10 µM, 96 h).
`C=C1CC[C@@H]2[C@](C)(CO)[C@H](O)CC[C@@]2(C)[C@@H]1C/C=C1/C(=O)OC[C@H]1O` has a toxic ratio of 8.4 (AREc32; cytotoxicity; 24 h; reference: baseline IC10 over IC10).
`O=S(=O)(c1ccc(O)cc1)c1ccc(O)cc1`: “late apoptotic cells” 18.4 ± 8.56% (HepG2 spheroids, dissociated; annexin V-FITC/PI flow cytometry; 40 µM, 24 h).
`O=c1ccc2ccccc2o1`: “point of departure” 106 µM (HepG2; measured: IL-8; 6 h).
The LC50 of `CC(C)[C@H](NC(=O)[C@H](CCCNC(=N)N)NC(=O)[C@H](Cc1c[nH]c2ccccc12)NC(=O)[C@H](CCCNC(=N)N)NC(=O)[C@H](Cc1c[nH]c2ccccc12)NC(=O)[C@H](Cc1c[nH]c2ccccc12)NC(=O)[C@H](Cc1c[nH]c2ccccc12)NC(=O)[C@H](CCCNC(=N)N)NC(=O)[C@H](Cc1c[nH]c2ccccc12)NC(=O)[C@H](CCCNC(=N)N)NC(=O)CN)C(N)=O` is reported as 119 µM (PK-15).
`Cc1cccn2c(=O)c3cc(C(=O)Nc4ccc(N(C)C)cc4)n(C)c3nc12` has a viability of 69.4% (Vero; MTT; 6.3 µM, 24 (unit not given)).
The viability of `CC(C)C[C@H](NC(=O)[C@H](C)NC(=O)[C@@H](NC(=O)[C@H](CCCNC(=N)N)NC(=O)[C@H](CC(C)C)NC(=O)[C@H](Cc1c[nH]c2ccccc12)NC(=O)[C@@H]1CCCN1C(=O)[C@@H](N)CCCCN)C(C)C)C(=O)N[C@@H](CS)C(=O)N1CCC[C@H]1C(=O)NCC(=O)O` is reported as 103% and 110% and 104% (H9c2; WST-1; 128 µM, 24 h).
The CC50 of `CC[C@H](C)[C@H](NC(=O)[C@H](Cc1ccc(O)cc1)NC(=O)[C@H](CCCCN)NC(=O)[C@H](CCC(N)=O)NC(=O)[C@@H](NC(=O)[C@H](Cc1c[nH]c2ccccc12)NC(=O)[C@H](CCCCN)NC(=O)[C@H](CCCCN)NC(=O)[C@H](CCCNC(=N)N)NC(=O)[C@@H]1CCCN1C(=O)[C@H](Cc1c[nH]cn1)NC(=O)[C@@H](NC(=O)[C@H](CS)NC(=O)[C@@H](NC(=O)[C@H](CCCCN)NC(=O)[C@H](CCCCN)NC(=O)CNC(=O)[C@H](CCCNC(=N)N)NC(=O)[C@H](CCCCN)NC(=O)[C@@H](NC(=O)[C@@H](NC(=O)[C@H](Cc1ccccc1)NC(=O)[C@@H](NC(=O)[C@@H](NC(=O)[C@H](C)NC(=O)[C@@H](N)CCCNC(=N)N)C(C)C)[C@@H](C)CC)[C@@H](C)O)[C@@H](C)O)C(C)C)[C@@H](C)O)C(C)C)C(=O)N[C@@H](CO)C(=O)N[C@@H](CC(C)C)C(=O)N[C@@H](CC(C)C)C(=O)N[C@@H](CCCCN)C(=O)N[C@H](C(=O)N1CCC[C@H]1C(=O)N[C@@H](CCCCN)C(=O)N[C@@H](CCC(N)=O)C(=O)N[C@@H](CC(C)C)C(=O)O)[C@@H](C)O` is reported as 55.1 µM (PMA-differentiated THP-1; cell viability, MTT; 24 h).

For quick reference, copied from above:
`CC[C@@H](C)[C@H]1O[C@@H](c2c(O)c(-c3ccccc3)cn(OC)c2=O)[C@H](C)C[C@@H]1C` has an IC50 of over 10 µg/mL (SK-OV-3; cytotoxicity, neutral red; 48 h).
For `CC(C)(c1ccc(O)cc1)c1ccc(O)cc1`, the necrotic cells was 14.5 ± 6.93% (HepG2 spheroids; annexin V-FITC/PI flow cytometry; 10 µM, 24 h).
